Measurements collected from several papers.
Protocols differ between the studies behind these lines. ± marks the error that the study gave.

NC12CNCCNCC(NCc3ccc(CNC(=O)CCCC(=O)NCc4ccc(-c5nncnn5)cc4)cc3)(CNCCNC1)CNCCNC2.[64Cu+2]  tissue uptake (athymic nude mice SW1222 xenograft, spleen; 1 h post injection, 24 h accumulation interval, with: huA33-TCO pretargeting): 0.98 ± 0.25 %ID/g
O=C([O-])CN1CCN(CC(=O)[O-])CCN(CC(=O)NCCc2ccc3c(c2)C2C=CCC2C(c2cc4c(cc2Br)OCO4)N3)CCN(CC(=O)[O-])CC1.[111In+3] (stereo not shown)  tissue uptake (mouse, Hec50 endometrial tumour, muscle; 1 h post injection): 0.43 ± 0.11 %ID/g
CN1C(=O)[C@@H](Cc2ccc(O)c(I)c2)NC(=O)CNC(=O)[C@H](Cc2ccc3ccccc3c2)NC(=O)[C@H](CCCNC(=N)N)NC(=O)[C@H]1CCCNC(=O)c1ccc(CNC(=O)CN2CCN(CC(=O)O)CCN(CC(=O)O)CCN(CC(=O)O)CC2)cc1 [lutetium-177 labelled]  tissue uptake (item: 177Lu radioactivity; female CB-17 SCID mice, Daudi xenograft, small intestine; intravenous, 0.16 nmol per mouse, 96 h): 0.09 ± 0.02 %ID/g
O=C(O)C1CN(Cc2ccc(-c3noc(-c4ccc(OCC[18F])c(C(F)(F)F)c4)n3)cc2)C1  tissue uptake (male Sprague-Dawley rat, muscle; intravenous, 120 min): 0.135 ± 0.007 %ID/g
CCCC[C@H](NC(=O)CNC(=O)CNC(=O)CN1CCN(CC(=O)O)CCN(CC(=O)O)CC1)C(=O)N[C@H]1CC(=O)NCCCC[C@@H](C(N)=O)NC(=O)[C@H](Cc2c[nH]c3ccccc23)NC(=O)[C@H](CCCNC(=N)N)NC(=O)[C@@H](Cc2ccccc2)NC(=O)[C@H](Cc2c[nH]cn2)NC1=O [copper-64 labelled]  tissue uptake (female C57 mouse, B16/F1 melanoma, liver; intravenous, 0.037 MBq, 24 h): 0.53 ± 0.07 %ID/g
CCCC[C@H](NC(=O)CNC(=O)CNC(=O)CN1CCN(CC(=O)O)CCN(CC(=O)O)CC1)C(=O)N[C@H]1CC(=O)NCCCC[C@@H](C(N)=O)NC(=O)[C@H](Cc2c[nH]c3ccccc23)NC(=O)[C@H](CCCNC(=N)N)NC(=O)[C@@H](Cc2ccccc2)NC(=O)[C@H](Cc2c[nH]cn2)NC1=O [gallium-67 labelled]  tissue uptake (female C57 mice, B16/F1 melanoma, heart; intravenous, 0.037 MBq, 24 h): 0.96 ± 0.39 %ID/g
CCCC[C@@H]1NC(=O)[C@@H](NC(=O)[C@H](CCC(=O)O)NC(=O)CNC(=O)CN2CCN(CC(=O)O)CCN(CC(=O)O)CCN(CC(=O)O)CC2)CCCCNC(=O)C[C@@H](C(N)=O)NC(=O)[C@H](C(C)C)NC(=O)[C@@H]2CCCN2C(=O)[C@H](CCCNC(=N)N)NC(=O)CNC(=O)[C@H](Cc2c[nH]c3ccccc23)NC(=O)[C@H](CCCNC(=N)N)NC(=O)[C@@H](Cc2ccccc2)NC(=O)[C@H](Cc2c[nH]cn2)NC(=O)[C@H](CCC(=O)O)NC1=O [gallium-67 labelled]  tissue uptake (C57 mice with B16/F1 melanoma, brain; intravenous, 4 h): 0.01 %ID/g
CC(C)[C@H](NC(=O)[C@@H]1CCCN1C(=O)[C@H](CCCNC(=N)N)NC(=O)[C@H](CS)NC(=O)[C@H](Cc1c[nH]c2ccccc12)NC(=O)[C@H](CCCNC(=N)N)NC(=O)[C@@H](Cc1ccccc1)NC(=O)[C@H](Cc1c[nH]cn1)NC(=O)[C@H](CCC(=O)O)NC(=O)[C@H](CS)NC(=O)[C@H](CS)NC(=O)CNC(=O)[C@@H]1CC(=O)N[C@@H](CCCNC(=N)N)C(=O)NCC(=O)N[C@@H](CC(=O)O)C(=O)N[C@H](Cc2ccc(O)cc2)C(=O)N1)C(N)=O [technetium-99m labelled]  tissue uptake (C57 mouse, female, B16/F1 melanoma, brain; intravenous, 0.037 MBq, 0.5 h): 0.16 ± 0.01 %ID/g
CCCC[C@H](NC(=O)CNC(=O)CNC(=O)CN1CCN(CC(=O)O)CCN(CC(=O)O)CCN(CC(=O)O)CC1)C(=O)N[C@H]1CC(=O)NCCCC[C@@H](C(N)=O)NC(=O)[C@H](Cc2c[nH]c3ccccc23)NC(=O)[C@H](CCCNC(=N)N)NC(=O)[C@@H](Cc2ccccc2)NC(=O)[C@H](Cc2c[nH]cn2)NC1=O [copper-64 labelled]  tissue uptake (female C57 mouse, B16/F1 melanoma, spleen; intravenous, 0.037 MBq, 4 h): 1.12 ± 0.26 %ID/g
OCc1cn(Cc2ccc(-c3noc(-c4ccc(OCC[18F])c(C(F)(F)F)c4)n3)cc2)nn1  tissue uptake (Lewis rat, female, brain; intravenous, 0.5 h): 0.57 ± 0.02 %ID/g
CCCC[C@H](NC(=O)CNC(=O)CNC(=O)CN1CCN(CC(=O)O)CCN(CC(=O)O)CCN(CC(=O)O)CC1)C(=O)N[C@H]1CC(=O)NCCCC[C@@H](C(N)=O)NC(=O)[C@H](Cc2c[nH]c3ccccc23)NC(=O)[C@H](CCCNC(=N)N)NC(=O)[C@@H](Cc2ccccc2)NC(=O)[C@H](Cc2c[nH]cn2)NC1=O [lead-203 labelled]  tissue uptake (C57 mouse, stomach; intravenous, 0.056 MBq, 24 h): 1.67 ± 0.93 %ID/g
CC(C)[C@H](NC(=O)[C@@H]1CCCN1C(=O)[C@H](CCCNC(=N)N)NC(=O)[C@H](CS)NC(=O)[C@H](Cc1c[nH]c2ccccc12)NC(=O)[C@H](CCCNC(=N)N)NC(=O)[C@@H](Cc1ccccc1)NC(=O)[C@H](Cc1c[nH]cn1)NC(=O)[C@H](CCC(=O)O)NC(=O)[C@H](CS)NC(=O)[C@H](CS)NC(=O)[C@@H]1CC(=O)N[C@@H](CCCNC(=N)N)C(=O)NCC(=O)N[C@@H](CC(=O)O)C(=O)N[C@H](Cc2ccc(O)cc2)C(=O)N1)C(N)=O [technetium-99m labelled]  tissue uptake (C57 mouse, female, B16/F1 melanoma, tumor; intravenous, 0.037 MBq, 24 h): 5.74 ± 1.22 %ID/g
CN(C)c1ccc(-c2nc3ccc(OCCCCCN4CCN5CCN(CC4)CC(=O)[O][Al]([18F])[O]C(=O)C5)cc3s2)cc1  tissue uptake (ICR mouse, heart; intravenous, 30 min): 0.83 ± 0.14 %ID/g

For quick reference, copied from above:
O=C([O-])CN1CCN(CC(=O)[O-])CCN(CC(=O)NCCc2ccc3c(c2)C2C=CCC2C(c2cc4c(cc2Br)OCO4)N3)CCN(CC(=O)[O-])CC1.[111In+3] (stereo not shown)  tissue uptake (mouse, Hec50 endometrial tumour, muscle; 1 h post injection): 0.43 ± 0.11 %ID/g
